# Measurements collected from several papers.
# Parts stem from different laboratories: compare values within a part only. Substitutions count along the parent as printed.

# Set 1
# Target: PABPC1L2, full length, GST fusion (mouse, UniProt A0ABA7IW68)
# Method: RNAcompete
# Form: RNA
# Sample: in vitro
# Tested at: 20 nM
# Setting: 7-mer, probes averaged, single round
# Reference: mean of 7-mers
# Direction: higher = stronger binding
# Target sequence (chain): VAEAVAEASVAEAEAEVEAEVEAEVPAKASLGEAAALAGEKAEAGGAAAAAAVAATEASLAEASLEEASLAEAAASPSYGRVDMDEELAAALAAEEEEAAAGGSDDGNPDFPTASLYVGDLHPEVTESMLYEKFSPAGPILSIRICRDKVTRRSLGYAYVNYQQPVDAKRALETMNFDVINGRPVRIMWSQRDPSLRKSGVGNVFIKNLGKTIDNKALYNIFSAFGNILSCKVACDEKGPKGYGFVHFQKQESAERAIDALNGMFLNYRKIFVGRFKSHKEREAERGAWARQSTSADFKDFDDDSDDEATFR
Strand,7-mer Z-score
AAUGACA,0.234
GUUCUUA,-0.248
UAAAAUA,3.11
GAGGACA,0.309
AGAGGAC,0.231
GUUCGUC,-0.51
AGAGGCG,0.0859
CACUUUA,-0.012
UUCAUCU,-0.296
ACGUGUC,-0.144
CAGUGCA,-0.211
AAGUCCU,-0.206
AAGGCGC,0.144
CGCCAGG,-0.287
UACAUCU,-0.229
AACGAGU,-0.0192
UAUAACC,-0.124

# Set 2
# Target: Prothrombin, mature alpha-thrombin (F2, Homo sapiens, UniProt P00734)
# Method: aptamer microarray, sandwich
# Form: DNA with 2'F-ANA
# Sample: in vitro
# Tested at: 200 nM
# Setting: whole 15-mer aptamer, many near background
# Together with: Cy3 exosite-II aptamer, 400 nM
# Direction: higher = stronger binding
# Strand: GGTTGGTGTGGTTGG
Modification,mean fluorescence intensity
2'F-ANA at 3 4 6 7 9 14 15,240 a.u.
2'F-ANA at 2 7 12 13 15,631 a.u.
2'F-ANA at 1 2 3 4 6 8 9 10 12 13,57.6 a.u.
2'F-ANA at 5 7 8 9 12 13 15,113 a.u.
2'F-ANA at 1 2 3,299 a.u.
2'F-ANA at 1 4 5 6 12 13,69.3 a.u.
2'F-ANA at 2 5 8 11 13 14,53.4 a.u.
2'F-ANA at 1 2 4 5 7 8 9 10 11 14,51.6 a.u.
2'F-ANA at 1 2 3 4 5 8 9 10 12 15,48.8 a.u.
2'F-ANA at 1 2 4 9 11 12,225 a.u.
2'F-ANA at 1 5 7 8 9 14 15,44.3 a.u.
2'F-ANA at 1 2 4 8,155 a.u.
2'F-ANA at 5 6 8 9 14 15,69.2 a.u.
2'F-ANA at 1 2 3 7 8 9 10 11 12 13 14 15,67.1 a.u.
2'F-ANA at 2 7 10 11 12 15,174 a.u.
2'F-ANA at 1 2 3 5 7 8 10 11 12 13 14 15,48.9 a.u.
2'F-ANA at 1 5 6 8 10 14,67.3 a.u.
2'F-ANA at 1 3 7 8 10,100 a.u.
2'F-ANA at 4 5 7 8 9 10 12 14,45 a.u.
2'F-ANA at 2 3 4 6 7 8 9 10 12 15,260 a.u.
2'F-ANA at 1 3 4 5 6 7 10 11 12 15,50.1 a.u.
2'F-ANA at 1 2 5 6 7 8 11 13 14,118 a.u.
2'F-ANA at 4 5 6 8 9 10 11 12 14,49.3 a.u.
2'F-ANA at 1 3 5 10 11 12 13 15,50 a.u.
2'F-ANA at 1 2 3 4 5 7 10,46.5 a.u.

# Set 3
# Target: RNA binding protein fox-1 homolog 2, RRM domain, GST-SBP tag (RBFOX2, Homo sapiens, UniProt O43251-10, residues 100-194)
# Method: RNA Bind-n-Seq
# Form: RNA
# Sample: in vitro
# Tested at: 365 nM
# Setting: natural RNA segment, single round, ends assumed
# Reference: no-protein control
# Direction: higher = stronger binding
# Shared flanks, not repeated: GGGAGUUCUACAGUCCGACGAUC … UGGAAUUCUCGGGUGCCAA
# Target sequence (chain): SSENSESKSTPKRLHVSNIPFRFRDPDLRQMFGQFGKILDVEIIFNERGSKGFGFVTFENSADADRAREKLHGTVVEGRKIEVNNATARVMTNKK
Strand,RBNS enrichment (R)
UUCUAAUCUAGAGCACGGAGAACUGGUCUGUCACUUUUAAAAUUAGAUGCCUUUGAUCAGAGUUUGACUCACAGACAGCAUUUGAGCUCUACAGCUAUUUGAGUCCCUAG,0.412
AAGAAAGAACUCUCCACCCCAGCUCCCACCCUGCCCUGGCCUGGGUGGAGGAACUGUGCCUCCAUCCCCAGAAGAAACAGCCCCCUCUGCUGCUGGGGUGGGACUGUCUG,0.486
GACUGUCUGAGACAGUUUGCACAUAGAAAAAGCAUCUGAGCCACUGGAGGGAAGGAUUUGGCAAAGGUGCAUGUGUUUGGGCAGGAAAAGGCCAAGUGAAAUCUAUGCCC,2.82
AUUAAUUUUCAAAAAAAAGUUUUUAUAAUGAAGUUGUUUAUUAAAAACUUCUGAAUGAUGUGCUUUGAGUUUUGAACUUGUUUAUUUGGGGAGGGUUGCAGUGAGCCAGA,1.21
GGGCAAUGCUUGAUCUUAUACAACACUUACACUCUAGAAUAUUUUGUACAUAUGUUUGUUCUUUUUUUUUUUUUUUUUGUACAGACUAUUUACUUGUUCAAAAAAAACAG,1.08
AAAAGGGAUACCGUGGGACUCUGCCCGUCUCUUUCAUAACGCAAUAUUUAUUUGUAUUGGGUGAUGAUUGAUUCUUUCGACCUAACAUUUUGGGUUUUAACCAAAUAACC,0.206
AGAUGAUGUGACAACCUCUAAUAUUUAUCUAAUAAAUAUGUAUUCAGAUGAAACCUGUAUAUUAGGUGUUCAUGUGGUUAUUUUGUAUUUAAAGAUCAAAUUAUUUGACU,0.283
ACCUCCCCUGACACCCCAGUCCUGGUUGGCCCUUUCUCCUGCCUUGCCCUGAAGUCUUACCUUCUCCCAUUGCAUUCAAGGCCUAUAGCACAAAGUGCAUCUCAGAGAUG,0.66

# Set 4
# Target: XBP1, bZIP domain (human)
# Method: DHFR protein complementation
# Sample: yeast
# Setting: single substitutions, most at no-binding floor
# Reference: wild-type JUN-FOS pair
# Direction: higher = stronger binding
# Starting sequence: JUN, bZIP domain (human); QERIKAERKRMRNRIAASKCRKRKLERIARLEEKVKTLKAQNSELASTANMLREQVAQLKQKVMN; partner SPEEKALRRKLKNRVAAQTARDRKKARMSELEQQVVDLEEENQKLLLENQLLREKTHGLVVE
Substitution,binding fitness [natural log]
Q55L,-0.554
R53Q,-1.2
R30H,-0.389
I28K,-1.26
K39E,-1.18
E44T,-1.17
E54C,-1.49
L38R,-1.37
V56P,-1.5
E33W,-1.3
E32M,-1.32
S43W,-1.23
I28M,-0.613
E33S,-1.06
L59H,-0.553
A46C,-1.11
T37W,-0.662

# Repeated from above (set 1):
Strand,7-mer Z-score
CACUUUA,-0.012
AAUGACA,0.234
GUUCUUA,-0.248
AAGGCGC,0.144
UACAUCU,-0.229
GUUCGUC,-0.51
GAGGACA,0.309
UUCAUCU,-0.296
CGCCAGG,-0.287
